# Assay results of several laboratories.
# Every numbered part comes from another study and shows a few of its results, in no order. Positions count from the first letter of the parent shown.

# Study 1
# Target: Interferon regulatory factor 3, full length, phosphomimetic (IRF3, Homo sapiens, UniProt Q14653, residues 1-427, S386D/S396D/S398D/S402D/T404D/S405D)
# Technique: protein-binding microarray
# Form: double-stranded DNA, one strand shown
# Matrix: in vitro
# Concentration: 2540 nM top
# Setting: 60-bp whole probe
# Added: salmon DNA 0.4 mg/ml
# Reference: random background probes
# Reading: higher = stronger binding
# All sequences stand within: GCCTAGCAC … GTCTTGATTCGCTTGACGCTGCTG
# Residues (chain): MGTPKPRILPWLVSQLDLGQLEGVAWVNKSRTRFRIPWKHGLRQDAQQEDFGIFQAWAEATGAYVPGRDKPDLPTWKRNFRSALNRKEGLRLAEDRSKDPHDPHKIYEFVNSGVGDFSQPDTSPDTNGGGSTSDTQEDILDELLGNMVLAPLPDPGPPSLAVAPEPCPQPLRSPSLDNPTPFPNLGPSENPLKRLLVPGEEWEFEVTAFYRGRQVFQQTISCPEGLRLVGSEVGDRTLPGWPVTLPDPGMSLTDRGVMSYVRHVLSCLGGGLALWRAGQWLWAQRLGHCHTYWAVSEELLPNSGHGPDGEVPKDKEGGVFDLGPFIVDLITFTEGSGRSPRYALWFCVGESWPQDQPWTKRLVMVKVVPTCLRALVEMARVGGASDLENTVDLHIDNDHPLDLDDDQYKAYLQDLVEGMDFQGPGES
Oligonucleotide,fitted relative affinity [z-score]
GACTATATCGGGTTTCGAGACGTGCTA,1.04
GACGATTTCAGTATCGGGACGTGCTAG,2.8
TAAGGACTGCTACTGCTTTAGTGCTAG,-0.761
ATGACTCCCTCTCTGGCCAAGTGCTAG,0.953
TAAGATCTCAGACTGGATTAGTGCTAG,-0.195
TTAGGTTTCGGATTGGGTTAGTGCTAG,6.26
GACGATTTCGGGTGTCGAGACGTGCTA,1.32
TTAGGTTACGACTTTCGGTTAGTGCTA,1.83
TTCCCTCTCCCCTCTTGTGCTGTGCTA,1.24
TTAGGGCTCGGTCTCGGTTAGTGCTAG,-0.154
GACGATATCGGGACTTGAGACGTGCTA,0.12
GCCCCACCCACTCTGGCCCCGTGCTAG,-0.226
TTAGATTTCGGATTTCGATTAGTGCTA,4.61
TTAGACTTCAGTCTCGATTAGTGCTAG,0.053
TCATTTTTCATCATTGCACTGTGCTAG,1.51
GACGGTGTCGGGTTTCGGGACGTGCTA,2.24
GACGAACTGGGGTATGGAGACGTGCTA,-0.502
TCTGTTTTTGCTTTCCTTCAGTGCTAG,2.86

# Study 2
# Target: Ras GTPase-activating protein-binding protein 1, full length (G3BP1, Homo sapiens, UniProt Q13283)
# Sequence of UniProt Q13283 (whole entry, looked up): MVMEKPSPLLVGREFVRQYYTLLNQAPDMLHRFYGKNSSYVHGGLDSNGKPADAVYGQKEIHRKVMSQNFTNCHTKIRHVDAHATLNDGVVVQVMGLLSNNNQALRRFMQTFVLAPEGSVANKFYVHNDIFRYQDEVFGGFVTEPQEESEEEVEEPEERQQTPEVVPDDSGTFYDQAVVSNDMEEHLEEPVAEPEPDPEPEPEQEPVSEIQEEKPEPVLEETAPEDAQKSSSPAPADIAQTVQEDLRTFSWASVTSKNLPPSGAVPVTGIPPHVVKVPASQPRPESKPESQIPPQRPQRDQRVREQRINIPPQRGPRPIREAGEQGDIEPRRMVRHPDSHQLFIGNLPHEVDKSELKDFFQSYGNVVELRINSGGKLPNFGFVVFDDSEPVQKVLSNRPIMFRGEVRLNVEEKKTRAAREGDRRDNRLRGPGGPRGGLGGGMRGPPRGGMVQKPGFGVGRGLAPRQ
# Technique: RNA Bind-n-Seq
# Form: RNA
# Matrix: in vitro
# Concentration: 200 nM
# Setting: whole 134-nt RNA, ends assumed
# Added: 150 mM KCl
# Reference: input library
# Reading: higher = stronger binding
# All sequences stand within: GGGAGUUCUACAGUCCGACGAUC … UGGAAUUCUCGGGUGUCAAGG
Oligonucleotide,log2 enrichment
CAAGUCCUGUGCUACACAUCGUAUGUACCGAAUCGGGCCCCGGCCCCGGGCCCCGGAAAGUAUUAUGUUACGCCGUUCGGAUCUGCACUU,-0.829
AAGUCCUGUGCUACACAUCGUAUGUACCGAAUCGGGAAAAGGAAAAGGAAAAGGGGAAAGUAUUAUGUUACGCCGUUCGGAUCUGCACUU,-0.746
CCUGUGCUACACAUCGUAUGUACCGAAUCGGCCCCCCCGGCCCCCCCGGGCCCCCCCGGGGAAAGUAUUAUGUUACGCCGUUCGGAUCUG,-0.223
CCUGUGCUACACAUCGUAUGUACCGAAUCGGGGAAAGGGGUUUUUUUGGGGUUUUUGGGGAAAGUAUUAUGUUACGCCGUUCGGAUCUGC,0.168
AGUCCUGUGCUACACAUCGUAUGUACCGAAUCGGGAAAAAAAGGGUUUGGGUUUGGGAAAGUAUUAUGUUACGCCGUUCGGAUCUGCACU,-0.229
AGUCCUGUGCUACACAUCGUAUGUACCGAAUCGGGGUUUUGGGUUUUGGGGUUUUGGGAAAGUAUUAUGUUACGCCGUUCGGAUCUGCAC,-0.13
UGGGAGGUGGAUUUUGUUUAUUUUUUUAGCUUAUUUCCAGGGGUGGGAAUUUUUUUUUAAUAUGUGUCAUGAAUAAAGUUGUUUUUGAAA,0.119
CAAAAACAACACGCACCCACACAGACACAGAGGGAAGGGGUUGGGAUGGGGACAGGGUGCACAGCAGGGCGGGGUAGGACCCCAGCCCCU,1.99
CUCAAGUCCUGUGCUACACAUCGUAUGUACCGAAUCGGGGAGGGGAGGGAGGGAAAGUAUUAUGUUACGCCGUUCGGAUCUGCACUUCCA,1.41
ACCAUGCAGGUGGGCAUCUUUGGGAAGUGGGGCAAGGGGGGGAUAGGGAGGGGGGUAACACUUUGGGAACAGGUGGUCCCAGGUCGAAAC,1.38
GUCCUGUGCUACACAUCGUAUGUACCGAAUCGGGAAAAAGGGAAAAAGGAAAAAGGGGAAAGUAUUAUGUUACGCCGUUCGGAUCUGCAC,-0.587
UAACUUUAGAGGAGGAUCUGAUGGAUAUGGCAGUGGACGUGGAUUUGGGGAUGGCUAUAAUGGGUAUGGAGGAGGACCUGGCGGUGGCAA,0.0556
AGUCCUGUGCUACACAUCGUAUGUACCGAAUCGGGUUUUUGGGUGGGUUUUUUUGGGAAAGUAUUAUGUUACGCCGUUCGGAUCUGCACU,-0.079
CAAGUCCUGUGCUACACAUCGUAUGUACCGAAUCGGGGUGGGGAAAGGGGAGGGGAAAGUAUUAUGUUACGCCGUUCGGAUCUGCACUUC,1.16

# Study 3
# Target: CCNE1, cyclin fold, Cln2 fusion (human)
# Technique: yeast growth competition, sequencing
# Matrix: yeast
# Setting: weak parent motif
# Reference: not given
# Reading: higher = stronger binding
# Starting sequence: MASTL docking peptide (human); PMIAKNLMCELDE
Substitution,normalised enrichment score
K5D,0.348
A4Y,0.0473
M8K,-0.0453
L7M,-0.573
E10R,-2.93e-05
M2T,0.00443
D12F,0.396
M8V,0.235
I3C,0.264
A4W,0.576
D12V,0.103
K5V,-0.179
N6Q,0.068
E10L,0.534
M2E,-0.0373
D12C,0.191
N6T,0.217
A4I,0.182

# Study 4
# Target: Sal-like protein 4, full length isoform A (SALL4, Homo sapiens, UniProt Q9UJQ4, residues 1-1053)
# Sequence of UniProt Q9UJQ4 (whole entry, looked up): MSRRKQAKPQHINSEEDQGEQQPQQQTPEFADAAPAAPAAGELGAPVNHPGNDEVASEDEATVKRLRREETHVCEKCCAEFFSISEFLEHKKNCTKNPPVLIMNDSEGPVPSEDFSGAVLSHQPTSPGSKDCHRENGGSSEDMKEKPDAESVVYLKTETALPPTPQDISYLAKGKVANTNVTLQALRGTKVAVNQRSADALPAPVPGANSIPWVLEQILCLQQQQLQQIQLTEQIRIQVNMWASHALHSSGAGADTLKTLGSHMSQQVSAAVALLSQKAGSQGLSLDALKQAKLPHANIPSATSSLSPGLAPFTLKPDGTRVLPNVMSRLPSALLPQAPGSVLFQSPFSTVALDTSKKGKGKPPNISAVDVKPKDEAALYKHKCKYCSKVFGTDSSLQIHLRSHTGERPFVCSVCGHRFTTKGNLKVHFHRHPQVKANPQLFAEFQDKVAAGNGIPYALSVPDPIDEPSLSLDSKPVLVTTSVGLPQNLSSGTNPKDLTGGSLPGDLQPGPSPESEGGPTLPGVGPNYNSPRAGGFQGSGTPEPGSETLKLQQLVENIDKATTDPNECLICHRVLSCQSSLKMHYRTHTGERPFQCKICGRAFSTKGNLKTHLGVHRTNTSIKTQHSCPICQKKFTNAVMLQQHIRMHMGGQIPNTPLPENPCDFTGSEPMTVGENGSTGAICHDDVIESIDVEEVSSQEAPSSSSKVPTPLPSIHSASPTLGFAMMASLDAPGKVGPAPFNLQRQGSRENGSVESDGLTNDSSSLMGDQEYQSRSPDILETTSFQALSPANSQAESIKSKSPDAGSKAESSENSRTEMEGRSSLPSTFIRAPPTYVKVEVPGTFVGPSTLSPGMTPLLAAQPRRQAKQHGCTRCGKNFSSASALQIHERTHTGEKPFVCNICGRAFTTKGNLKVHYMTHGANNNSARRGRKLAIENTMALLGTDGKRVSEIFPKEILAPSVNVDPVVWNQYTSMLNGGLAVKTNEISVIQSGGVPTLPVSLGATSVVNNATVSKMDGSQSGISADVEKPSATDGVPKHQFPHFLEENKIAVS
# Technique: universal PBM
# Form: double-stranded DNA, one strand shown
# Matrix: in vitro
# Concentration: 600 nM
# Setting: 8-mer, flanks averaged, mean of replicates
# Reading: higher = stronger binding
Oligonucleotide,E-score
ATCGGACG,-0.2
AGCCGTGC,-0.24
AGACCAAG,-0.183
AGCCCACG,-0.309
CTCGTTTC,-0.0147
AACCCGAT,-0.0873
GTGCCACA,-0.238
GGGGCGAC,-0.333
ATGAACGC,0.052
CTTCATTA,0.279
CTAGGATA,0.0555
CAACGGAG,-0.316
GAACTAAA,0.191
GGTGATTA,0.167
ACGCAGCA,-0.187
GGACATAA,0.198
GAATGGGC,-0.166
TGGTTAAA,0.251
ACAACCTG,-0.000615
CTTTGTTA,0.264
TATCGGGA,-0.00991
ACTGTACT,-0.0117
CAGACGGC,-0.399
ATTGGTCC,0.0966
CCCCGCGG,-0.392

# Study 5
# Target: RNA binding protein fox-1 homolog 2, RRM domain, GST-SBP tag (RBFOX2, Homo sapiens, UniProt O43251-10, residues 100-194)
# Technique: RNA Bind-n-Seq
# Form: RNA
# Matrix: in vitro
# Concentration: 365 nM
# Setting: natural RNA segment, single round, ends assumed
# Reference: no-protein control
# Reading: higher = stronger binding
# All sequences stand within: GGGAGUUCUACAGUCCGACGAUC … UGGAAUUCUCGGGUGCCAA
# Residues (chain): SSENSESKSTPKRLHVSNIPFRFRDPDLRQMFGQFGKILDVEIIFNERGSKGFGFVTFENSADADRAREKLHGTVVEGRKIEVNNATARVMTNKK
Oligonucleotide,RBNS enrichment (R)
GUCAGAUCAGCUCCUAAGGGGGUGACGCCUGCCCUCCCCAGAGCACUGGGUUGCAGGGGAUUGAAGCCCUCCAAAAGCACUUACGGAUUCUGGUGGGGUGUGUUCCAACU,0.235
UGUACAGUAAUGAAGUUCACUGUGUUUAUAAAUUGAAAAGGUACCAGGUCUUACAGCAUUUUAUAUAUCACAUCUUUACAGAAUAACAUGAUGGCAAUAUACAAGUGGUA,0.611
GGGAUGCCACGGUCGCCUCUGAGAAGGAAUCAGUCAUGUAAACCCCGGGAGGGACCUUCCCUGCCCUGCUGGGGGUGCUCUUUGGACACUGGAUUAUGAGGAAUGGAUAA,1.28
AGGACCAGCCUCUGGAUCAGUCCCUCUCUGCCCCUUCACUUCUGUCUCUAGCUCACUGGCUCUGUGGGCUUGGGCUCUGCCCCUACAACGGCUCUCAGAAGCAUUCACAC,0.474
UAUGUAUCUAGCUUGUGCAAAACCCUUAAGUAUGAGGGAUAGGACCCCCACCCAUGGGUUUACAUAUAUUUGGGGCUCAUUAUUUUUUAGCAUUUUCUUUAUCUCCGGAU,1.2
AGUGAAACUGCGAUACAACCCAGCUGGUAUUUUUGGCUAUUCAUGAGCUACUCAUGACUGAAGGGAAACUGCAGCUGGGAAGAGGAGCCUGUUUUUGUGAGAGACUUUUG,0.222
GAGAUGGGACCCCAGGGGGGGUUAGAGCUGGGUGUCCCGAAAACCCAGGCUGGGGCUAUGCGCCGUCCCCCUACACUUCUGCCAGUGCCUUACUUCCUGGAGACCCACCC,0.405
AUCACUCAGACAGCACUUCCACGGACAAGUCCCUGUCAAAACUGACCCAUGCUGGUGGAGAACAGACGUCAAUCAUUCCCGUCCAUCAGGUUAUUGAUAAGGUCAAGGGU,0.23
ACGUGAGAUGAUAAUGAAAACUUUUAGUUUAAGAGUGAAGGGUUAAGUAACCUAACAGAGCUUUGAUGUUAUAGCUGCAUUAAAGAAGGUGAUUGUCAAUAUUACAGAAA,0.492
GAGAUCAGUGGAAUUUAGAAGCAUCUUACAGGUAUCAAGGAAUUGAGCUUCUAGAGGGAUGGUUUGGCUUACUAAUUUAUCUUCCCUGAAAUAUGUUUGAGUAAAAAAGA,0.874
AAGGCUGCUGCUGUGUCAUUCGGUGCCUUUGUGAGUUUCCUUGCUGUAGGUGAUUCUUGACUGUGGGGAUUGGAAUUUGAGGCAGAAGUUACCAUCCCUACUACAUUUUU,0.722
CACUGCUGAGACUGCCUCUUGUUAAUGUCACCAUCACCUCAUCACUCAGGCAAAGAGGGGAAAAUCCAUAAAAGAGGUGGAAAAUGCAUUUAGUUUUUUCAUUUUGUUCU,0.75

# For quick reference, copied from above (study 1):
Oligonucleotide,fitted relative affinity [z-score]
GCCCCACCCACTCTGGCCCCGTGCTAG,-0.226
TTAGGTTTCGGATTGGGTTAGTGCTAG,6.26
TTCCCTCTCCCCTCTTGTGCTGTGCTA,1.24
TAAGATCTCAGACTGGATTAGTGCTAG,-0.195
ATGACTCCCTCTCTGGCCAAGTGCTAG,0.953
GACGATATCGGGACTTGAGACGTGCTA,0.12
TTAGGTTACGACTTTCGGTTAGTGCTA,1.83
